Measurements collected from several papers.
Each line is one published result; not all experiments were run side by side. “And” joins repeats or separate records; there may be more than shown. ± marks the error that the study gave.
Nos1: Nitric oxide synthase 1 (Nos1, Rattus norvegicus, UniProt P29476)
cathepsin H: cathepsin H (Capra hircus, UniProt A0A452G5L2)

| Structure (SMILES) | target | test | system | conditions | Ki |
| --- | --- | --- | --- | --- | --- |
| CC(C)C[C@H](NC(=O)N(CCCNC(=N)N)NC(=O)[C@H](Cc1ccc(O)cc1)NC(=O)CCCCCCC(=O)N[C@@H](Cc1ccc(O)cc1)C(=O)NN(CCCNC(=N)N)C(=O)N[C@@H](CC(C)C)C(=O)N[C@@H](CCCNC(=N)N)C(=O)N[C@@H](Cc1ccc(O)cc1)C(N)=O)C(=O)N[C@@H](CCCNC(=N)N)C(=O)N[C@@H](Cc1ccc(O)cc1)C(N)=O | Neuropeptide Y receptor type 4 (NPY4R, Homo sapiens, UniProt P50391) |  |  |  | 113 ± 14 nM |
| COc1cc(Cc2cnc(N)nc2N)cc(/C=C/C(=O)N2N=Cc3ccccc3C2c2cc(C)cc(C)c2)c1OC (stereo not drawn) | Dihydrofolate reductase (Enterococcus faecalis, UniProt Q834R2) | enzyme activity, inhibitor |  | with: dihydrofolate (Km 10.9 µM) | > 5 nM and 7.1 nM |
| CNC(=O)c1cc(C)ccc1NC(=O)c1ccc(-c2c(C)ccc3[nH]ncc23)c(C)c1 | Ephrin type-A receptor 4 (EPHA4, Homo sapiens, UniProt P54764) | enzyme activity, inhibitor |  |  | 5.5 nM |
| COC(=O)[C@]1(C)C=C(C(=O)OC(C)(C)C)C(=O)CC1 | Mitogen-activated protein kinase 14 (MAPK14, Homo sapiens, UniProt Q16539) | ligand displacement, FP |  |  | 8300 nM |
| CN(C)c1ccc2c3c(cccc13)C(=O)N(CCS)C2=O | Metallo-beta-lactamase type 2 (Serratia marcescens, UniProt P52699) | enzyme activity, inhibitor |  | Km 4.8 µM, with: chromacef 25 µM | 37 ± 3 nM |
| Cc1cc(N)nc(C[C@@H]2CNC[C@@H]2OCCCCCc2cc(F)cc(Cl)c2)c1 | Nos1 | enzyme activity, inhibitor |  | pH 7.4 | 230 nM |
| CCN(CC)c1ccc2c(-c3ccc(S(=O)(=O)NCCCCCC(=O)NCCOCCOCCNCC(O)CN4CCN(CCSC(c5ccc(F)cc5)c5ccc(F)cc5)CC4)cc3S(=O)(=O)[O-])c3ccc(=[N+](CC)CC)cc-3oc2c1 (stereo not drawn) | Sodium-dependent serotonin transporter (Slc6a4, Rattus norvegicus, UniProt P31652) | ligand displacement, radioligand |  | cell membranes | 1130 nM |
| O=P(O)(O)OC[C@H]1O[C@@](O)(C(F)(F)F)[C@H](O)[C@@H](O)[C@@H]1O | pgmB (Lactococcus lactis, UniProt P71447) | enzyme activity, competitive inhibitor |  |  | 310000 ± 41000 nM |
| CC(=O)N[C@@H](CCC(N)=O)C(=O)N[C@@H](CC(=O)O)C(=O)N[C@H](C(=O)N[C@@H](CCCNC(=N)N)C(=O)N[C@H](C=O)CC(=O)O)[C@@H](C)O | Caspase-6 (CASP6, Homo sapiens, UniProt P55212) | enzyme activity, inhibitor, fluorescence |  | pH 7 | > 100000 nM |
| CCCCSC[C@H]1CN(Cc2c[nH]c3c(N)ncnc23)C[C@@H]1O | Aminodeoxyfutalosine nucleosidase (Helicobacter pylori, UniProt Q9ZMY2) | enzyme activity, inhibitor |  | slow-onset equilibrium | 0.036 ± 0.002 nM |
| CCCCCCCCCCCCCCCC(=O)OCCCC | pheromone-binding protein 1 (Lymantria dispar, UniProt O16105) | binding, competitive fluorescence binding |  | pH 5.5, pheromone-binding protein 1, with: 1-NPN probe | 9320 ± 490 nM |
| COc1ccccc1/C=C/C(=N\NC(N)=O)c1ccccc1 | cathepsin H | competitive inhibitor, Lineweaver-Burk plot | goat liver enzyme | pH 7.0, with: Leu-βNA substrate | 54000 ± 300 nM |
| NS(=O)(=O)c1cccc(-c2cn(CB(O)O)nn2)c1 | Beta-lactamase ADC-7 (Acinetobacter baumannii, UniProt Q6DRA1) | enzyme activity, inhibitor, competition kinetics |  | with: nitrocefin | 1600 nM |
| COc1cccc(/C=C/C(=N/NC(N)=O)c2ccccc2)c1 | cathepsin H | competitive inhibitor, Lineweaver-Burk plot | goat liver enzyme | pH 7.0, with: Leu-βNA substrate | 74000 ± 600 nM |
| Cc1cc(N)nc(CC2CNCC2OCCNCC(F)(F)c2ccccc2)c1 (stereo not drawn) | Nos1 | enzyme activity, inhibitor, hemoglobin capture |  |  | 85 nM |

For quick reference, copied from above:
| Structure (SMILES) | target | test | system | conditions | Ki |
| --- | --- | --- | --- | --- | --- |
| CC(=O)N[C@@H](CCC(N)=O)C(=O)N[C@@H](CC(=O)O)C(=O)N[C@H](C(=O)N[C@@H](CCCNC(=N)N)C(=O)N[C@H](C=O)CC(=O)O)[C@@H](C)O | Caspase-6 (CASP6, Homo sapiens, UniProt P55212) | enzyme activity, inhibitor, fluorescence |  | pH 7 | > 100000 nM |
| CCCCSC[C@H]1CN(Cc2c[nH]c3c(N)ncnc23)C[C@@H]1O | Aminodeoxyfutalosine nucleosidase (Helicobacter pylori, UniProt Q9ZMY2) | enzyme activity, inhibitor |  | slow-onset equilibrium | 0.036 ± 0.002 nM |
